Assay results from different studies.
Every numbered part comes from another study and shows a few of its results, in no order.

Set 1
Target: Centromere-binding protein 1, full length, N-terminal tag (CBF1, Saccharomyces cerevisiae, UniProt P17106, residues 1-351)
UniProt P17106, sequence (whole entry, looked up): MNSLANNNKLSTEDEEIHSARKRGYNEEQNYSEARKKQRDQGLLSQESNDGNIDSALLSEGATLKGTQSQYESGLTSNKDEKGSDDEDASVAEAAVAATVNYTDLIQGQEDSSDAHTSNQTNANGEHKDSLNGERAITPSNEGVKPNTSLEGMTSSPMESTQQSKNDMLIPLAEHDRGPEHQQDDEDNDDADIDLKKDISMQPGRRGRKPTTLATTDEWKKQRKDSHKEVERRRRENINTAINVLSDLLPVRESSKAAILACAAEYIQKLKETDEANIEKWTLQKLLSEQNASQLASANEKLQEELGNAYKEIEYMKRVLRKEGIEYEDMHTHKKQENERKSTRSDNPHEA
Method: protein-binding microarray
Form: double-stranded DNA, one strand shown
Sample: in vitro
Tested at: 0.8 µM
Notes: whole 60-bp probe, no competitor
Direction: higher = stronger binding
Endpoint: fluorescence intensity
Shared flanks, not repeated: … GTCTTGATTCGCTTGACGCTGCTG
CTATTGGAGCAGAGGCACCTGATAATGGAAGCGTTC: 687 a.u.
GAACCCCTGAACAATCAGCTGAGGTCAGAGATCTAG: 514 a.u.
CTACGCGATGAAGGTGACTCAGCCAATCCGGGTTTC: 525 a.u.
CTATCACACCCAACTCAGGTGTAAATCGTCCTATTC: 507 a.u.
GAACGGTTTGCACGTGATCTCAATTGATAATTCTAG: 20100 a.u.

Set 2
Target: Sal-like protein 4, full length isoform A (SALL4, Homo sapiens, UniProt Q9UJQ4, residues 1-1053)
UniProt Q9UJQ4, sequence (whole entry, looked up): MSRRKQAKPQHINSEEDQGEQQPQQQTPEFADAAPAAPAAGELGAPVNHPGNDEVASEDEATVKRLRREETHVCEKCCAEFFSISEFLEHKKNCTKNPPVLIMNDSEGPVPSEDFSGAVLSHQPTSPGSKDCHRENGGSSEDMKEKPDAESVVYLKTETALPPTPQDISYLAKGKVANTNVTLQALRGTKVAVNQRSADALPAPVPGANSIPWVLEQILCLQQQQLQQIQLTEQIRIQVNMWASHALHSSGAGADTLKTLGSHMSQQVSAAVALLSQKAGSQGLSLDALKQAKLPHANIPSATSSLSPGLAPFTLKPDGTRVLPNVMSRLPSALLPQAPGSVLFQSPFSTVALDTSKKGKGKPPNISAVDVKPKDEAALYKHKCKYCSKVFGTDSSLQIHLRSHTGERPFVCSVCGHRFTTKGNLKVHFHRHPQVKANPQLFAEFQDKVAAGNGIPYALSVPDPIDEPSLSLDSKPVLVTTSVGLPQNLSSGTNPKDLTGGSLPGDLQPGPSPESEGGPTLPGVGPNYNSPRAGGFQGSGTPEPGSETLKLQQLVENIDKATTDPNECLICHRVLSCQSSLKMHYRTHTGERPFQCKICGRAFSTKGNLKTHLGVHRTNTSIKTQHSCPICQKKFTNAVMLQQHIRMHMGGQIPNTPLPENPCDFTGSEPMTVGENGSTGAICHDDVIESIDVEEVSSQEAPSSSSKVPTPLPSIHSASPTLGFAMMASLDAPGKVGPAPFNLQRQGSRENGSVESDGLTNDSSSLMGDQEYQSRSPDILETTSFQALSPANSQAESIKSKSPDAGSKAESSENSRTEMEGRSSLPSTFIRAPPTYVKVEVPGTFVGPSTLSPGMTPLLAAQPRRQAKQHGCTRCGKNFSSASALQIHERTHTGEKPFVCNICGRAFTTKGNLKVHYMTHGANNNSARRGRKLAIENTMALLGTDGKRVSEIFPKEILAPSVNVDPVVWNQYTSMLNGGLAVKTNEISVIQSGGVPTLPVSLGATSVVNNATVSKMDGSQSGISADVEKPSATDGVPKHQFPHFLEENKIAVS
Method: universal PBM
Form: double-stranded DNA, one strand shown
Sample: in vitro
Tested at: 600 nM
Notes: 8-mer, flanks averaged, mean of replicates
Direction: higher = stronger binding
Endpoint: E-score
TCGCAAAA: 0.147
GAGGCGAC: -0.254
CTCATCAC: -0.0195

Set 3
Target: RING finger protein unkempt homolog, zinc fingers 1-6, GST-SBP tag (UNK, Homo sapiens, UniProt Q9C0B0, residues 30-357)
Method: RNA Bind-n-Seq
Form: RNA
Sample: in vitro
Tested at: not given
Notes: RNA with constant flanks, human-mouse chimeric sites, ends assumed
Relative to: input RNA pool
Direction: higher = stronger binding
Endpoint: bound/input enrichment
Residues (chain): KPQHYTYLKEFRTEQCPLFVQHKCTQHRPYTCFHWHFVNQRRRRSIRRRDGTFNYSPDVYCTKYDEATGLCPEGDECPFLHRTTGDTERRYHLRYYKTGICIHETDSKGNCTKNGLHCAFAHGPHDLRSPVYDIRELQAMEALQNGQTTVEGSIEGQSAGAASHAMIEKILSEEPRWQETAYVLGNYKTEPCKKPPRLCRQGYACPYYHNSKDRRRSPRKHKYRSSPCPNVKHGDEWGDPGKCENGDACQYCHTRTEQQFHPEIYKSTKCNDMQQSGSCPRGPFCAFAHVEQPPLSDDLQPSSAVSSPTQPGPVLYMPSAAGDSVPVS
GGGAGUUCUACAGUCCGACGAUCGUUGCCAGCUUCCGGUUCCGUUGGGCUCGGUUCUCUCAGUGCUACGUGUCCCUGGCACUCUCAAUCCGCCAUCCAACAAACAUGGAUCAGGUAAUGCAGUUUGUGGAGCCCAGCCGGCAGCAACAGAGGAUUGAGCAUCA: 0.092 ratio
GGGAGUUCUACAGUCCGACGAUCUCUGGCCACACUCGUGUGUAUGGUGUUUGCUUUGUGGACACUUCACUGGGCAAGUUUUUCAUCGGCCAGUUUUCGGAUGACCGCCACUGUUCGAGAUUUAGGACGCUAGUGGCUCACUAUCAACAGAGGAUUGAGCAUCA: 0.203 ratio
GGGAGUUCUACAGUCCGACGAUCGAGUCGAGCAAACUUGAAACAAUUCGUUAUCUUGCAGCCUCAGUGUUCACUUGCUUGGCGAUAGCAUAUUGGGAUUUUAGGUUCUGGAAGGAGAACUUUAAUGCUCACUGCCGCUGCUGCCAACAGAGGAUUGAGCAUCA: 0.596 ratio

Single results of other studies
PhoQ, residues 284 288 289 292 302 303 SSTLLI — fold induction (PhoP, residues 12 14 15 18 19 AQALL (Escherichia coli, UniProt P23836); Sort-seq, refers to: YFP reporter; E. coli; PhoQ-PhoP variant library, with: 10 µM Mg2+; relative to: high Mg2+ state, higher = stronger signaling): 19.2

Repeated from above (set 1):
GAACCCCTGAACAATCAGCTGAGGTCAGAGATCTAG: 514 a.u.
